Measurements collected from several papers.
Protocols differ between the studies behind these lines.
Target: Cytochrome P450 2C9 (CYP2C9, Homo sapiens, UniProt P11712)
Chain of UniProt P11712 (whole entry, looked up): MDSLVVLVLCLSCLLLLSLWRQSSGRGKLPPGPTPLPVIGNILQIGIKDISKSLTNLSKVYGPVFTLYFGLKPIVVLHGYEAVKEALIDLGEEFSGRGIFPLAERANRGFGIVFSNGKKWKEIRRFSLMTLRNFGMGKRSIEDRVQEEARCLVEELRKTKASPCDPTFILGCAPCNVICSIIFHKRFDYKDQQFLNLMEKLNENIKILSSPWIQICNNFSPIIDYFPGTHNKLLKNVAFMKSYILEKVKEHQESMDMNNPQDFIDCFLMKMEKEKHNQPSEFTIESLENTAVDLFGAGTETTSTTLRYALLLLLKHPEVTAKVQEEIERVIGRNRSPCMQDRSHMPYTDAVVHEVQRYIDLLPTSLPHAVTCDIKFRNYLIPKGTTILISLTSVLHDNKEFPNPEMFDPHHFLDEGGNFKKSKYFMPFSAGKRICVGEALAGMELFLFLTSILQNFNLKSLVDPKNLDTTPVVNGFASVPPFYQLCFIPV

| SMILES | assay | test system | setting | how to read | measurement | result |
| --- | --- | --- | --- | --- | --- | --- |
| Nc1ccc(S(=O)(=O)Nc2ccnn2-c2ccccc2)cc1 | enzyme activity, inhibitor | pooled human liver microsomes | concentration not given | – | remaining activity | 12.6% |
| C=C[C@H]1CN2CCc3c([nH]c4cccc(OC)c34)[C@@H]2C[C@@H]1/C(=C\OC)C(=O)OC | enzyme activity, inhibitor | human liver microsomes | added: diclofenac 4'-hydroxylation | – | IC50 | 15.7 µM |
| CC(C(=O)O)c1ccc(C(=O)c2cccs2)cc1 (racemic) | inactivator | – | added: (S)-warfarin 7-hydroxylation | reference: (S)-warfarin over (S)-flurbiprofen and diclofenac | inactivation efficiency ratio | ~3 fold |
| CC[C@@H]1CN2CC[C@@]3(O)C(=Nc4cccc(OC)c43)[C@@H]2C[C@@H]1/C(=C\OC)C(=O)OC | enzyme activity, inhibitor | human liver microsomes | added: diclofenac 4'-hydroxylation | – | IC50 | > 45 µM |
| CC(=O)CC(c1ccccc1)c1c(O)c2ccc(O)cc2oc1=O (stereo not shown) | enzyme activity, inhibitor | – | – | – | Ki | 10 µM |
| CNC(=O)Oc1cc(C)c(SC)c(C)c1 | inhibitor | human liver microsomes | 10 µM, pH 7.4, added: diclofenac | – | inhibition | 16.3% |
| CC(=O)CC(c1ccc(O)cc1)c1c(O)c2ccccc2oc1=O (stereo not shown) | enzyme activity, inhibitor | human, liver microsomes | – | – | Ki | 17 µM |
| CNC(=O)O/N=C/C(C)(C)S(C)(=O)=O | inhibitor | human liver microsomes | 2 µM, pH 7.4, added: diclofenac | – | inhibition | < 0% |
| c1cc2c(cc1[C@H]1OC[C@H]3[C@@H]1CO[C@@H]3c1ccc3c(c1)OCO3)OCO2 | mechanism-based inhibitor | human liver microsomes | concentration not given, 60 min | – | activity recovery | no effect |
| CCCSc1ccc2nc(NC(=O)OC)[nH]c2c1 | inhibitor | human liver microsomes | 2 µM, pH 7.4, added: diclofenac | – | inhibition | < 0% |
| N#Cc1ccc(C(O)c2ccc(C#N)cc2)cc1 | inhibitor | – | – | – | IC50 | 134 µM |
| CC(=O)C(O)C(c1ccccc1)c1c(O)c2ccccc2oc1=O (stereo not shown) | enzyme activity, inhibitor | – | pH 7.4 | – | Ki | 0.94 µM |
| CC(C)(O)c1ccccc1CC[C@@H](SCC1(CC(=O)O)CC1)c1cccc(/C=C/c2ccc3ccc(Cl)cc3n2)c1 | inhibitor | human liver microsomes | 10 µM, pH 7.4, added: diclofenac | – | inhibition | 97.5% |
